# Measured values pooled from the literature.
# Each numbered part is a random draw from the data of one study; scales do not carry over between parts.

# Set 1 — method: universal PBM; form: double-stranded DNA, one strand shown; matrix: in vitro; concentration: not given; direction: higher = stronger binding
# Target: Sal-like protein 4, full length isoform B (SALL4, Homo sapiens, UniProt Q9UJQ4-2, residues 1-616)
# Setting: 8-mer, flanks averaged, mean of replicates
# Residues (chain): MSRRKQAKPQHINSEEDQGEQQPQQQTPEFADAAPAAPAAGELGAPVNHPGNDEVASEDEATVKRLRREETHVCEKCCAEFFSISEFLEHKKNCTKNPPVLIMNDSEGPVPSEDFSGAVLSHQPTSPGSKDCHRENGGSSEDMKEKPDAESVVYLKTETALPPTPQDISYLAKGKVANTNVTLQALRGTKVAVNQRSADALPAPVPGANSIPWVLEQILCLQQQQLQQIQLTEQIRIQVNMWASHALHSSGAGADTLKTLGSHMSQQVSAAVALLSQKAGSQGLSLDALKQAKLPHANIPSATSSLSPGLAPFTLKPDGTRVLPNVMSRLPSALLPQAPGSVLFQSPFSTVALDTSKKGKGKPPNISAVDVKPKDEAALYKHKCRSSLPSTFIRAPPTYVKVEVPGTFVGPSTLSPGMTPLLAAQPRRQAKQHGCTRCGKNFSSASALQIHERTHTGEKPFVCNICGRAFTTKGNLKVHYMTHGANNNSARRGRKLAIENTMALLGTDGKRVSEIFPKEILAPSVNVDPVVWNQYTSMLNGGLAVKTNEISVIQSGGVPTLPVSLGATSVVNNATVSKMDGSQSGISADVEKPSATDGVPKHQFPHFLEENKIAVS
Strand,E-score
TAGCATCA,0.0809
ATTATTTA,0.409
AAGTAGGA,0.0636
GACCCGTC,-0.317
ATAGCATC,0.192
ACGGGGTG,-0.248
ATGACGCG,0.0749
AGTGTCCC,-0.22
AATTCTGT,0.152
ATCGTAAC,0.0893
ATGCGGGG,-0.155
ACTCTGCC,-0.0679
GTGAAGTA,0.102
AAGGGGCT,-0.0665
AATGTTGT,0.183
GCGCGCCC,-0.346
ATGGTGGC,-0.114
CTAGACCC,-0.28
ACGTGCCT,-0.0544
ATCGCACG,0.00145
GGACCTAC,-0.121
CGGATCCC,-0.306
AGTGCCGC,-0.167
ATAGCTAA,0.134
GGGCCTCA,-0.292

# Set 2 — method: RNA Bind-n-Seq; form: RNA; matrix: in vitro; concentration: 365 nM; baseline: no-protein control; direction: higher = stronger binding
# Target: RNA binding protein fox-1 homolog 2, RRM domain, GST-SBP tag (RBFOX2, Homo sapiens, UniProt O43251-10, residues 100-194)
# Setting: natural RNA segment, single round, ends assumed
# Shared flanks, not repeated: GGGAGUUCUACAGUCCGACGAUC … UGGAAUUCUCGGGUGCCAA
# Construct (chain): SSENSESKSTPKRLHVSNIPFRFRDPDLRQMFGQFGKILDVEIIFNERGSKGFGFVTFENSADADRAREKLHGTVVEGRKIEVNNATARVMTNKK
Strand,RBNS enrichment (R)
AAAUGUUUAAAGAAAUCAAAAGAAUCUAUUAGAUUUUAGAAAAACAUUUAAACUUUUUAAAAUACUUAUUAAAAAAUUUGUAUAAGCCACUUGUCUUGAAAACUGUGCAA,0.904
AUUUAGGGUGGACAAAUGCAUUACUGUUUUCAAACUGCUCACAUUUAUUCAGUAUUUCUCCAAGUUGCUAUCUACUCAGCCUUAUGAAUGCCCCUCGCUUUUCUAAGGCC,0.477
AGCUGUGGCUCAACACAUGAGAAGAAGCACGAAGCAGUUAGGCUGUACAUCAGACAGAAGGGUAAUGCGUGCAGUUCCUGCUGCCUGCAGGCAGACGAGGCCUUUGCUUU,0.645
UUGUUACUGAAAACAAAGUCUUGUCUAGCACCGUGAGAAUCAUUAAAAAUAAAAUGGCAAUUUUAGCACAAUGUUAAGAAAAUGCCCUACUUCAUUACCGCACUUUCUUG,0.481
UCCCCCAGAAACUUAGUGAGUCCUGGACUGGACUGAACAUCCAGAAAGCUUCCCUGCAAUCUUGGGGUUUGGCUUUAGUUUUCUUUUCCUUGAUUUCUCAGUAGGUGCUA,0.339
AUUUCAGAAGAAAUCGAGGGCACAGGCCCUCACUUUUCUUCUUUUGACGCAUCAUCCUGUGAUGUUGAAAUGUCAAUUGCAGGAUGCUGAUGUUGUGCACGUCAAUCACC,0.504
AGGACUAACCAGGCAGAAGCCAUUCACAGGACAGGCUCUGACGGGCUGUCACUGGCUGCUCGAGUCUCCAGCGUAAGCGCUUCACUUUGACUUAGGGUCAUAGUACGAGG,0.314
GUUUUAACAGGUCAUGUACUACGUUGUUGUUUUCAUUUCUGUUAUAAGUAAAACUAAAAGCACAGAAUGGUGGGAAAGGGGCUAUAAUGUGGUUCAUUAAUAAUGUUAGC,4.32
UCCCACUAAAACUUAGGCUGGGAAUGACAGUUUUCCUUUCCAGUCUCAGUUCAUGAGAACCCAUUUCCCAGAGGUUCGUUUUGAGCCAAUAGCCUAUUUUGAACCAUUUG,0.168
CAUAACUGCUGUCCUGCCUGCUCUCCUUGGGUUUCGGUUUUAAAAGCCUUUGUGGUUGAAAUGAAUAACGAUUCGGUUUUCUGAACUGUACACAUCCUUGUUCAGUUUUC,0.333
UGGCUUGAAGAGUAACCAUCAGAGCUGAAUCAUCCAAGUAAGAACAAGUACCAUUGUUGAUUGAUAAGUAGAGAUACAUUUUUUAUGAUGUUCAUCACAGUGUGGUAAGG,0.296
GUUUUCUUCACUAACAUUUAUUACCCUAGAUUAUUCAUGGGAAUCUGGAACUGUUGGACACAGUUGAAAGUGUGGUGGGGAAACCAUACAAUUGUUUUUACAGUUUUAGC,0.55

# Set 3 — method: EMSA with sequencing; form: double-stranded DNA, one strand shown; matrix: in vitro; concentration: 10 and 20 nM; baseline: negative control set to 0; direction: higher = stronger binding
# Target: Hepatocyte nuclear factor 3-alpha (Foxa1, Mus musculus, UniProt P35582, residues 1-468, full length assumed)
# Setting: whole designed probe, mean of two concentrations, ends assumed
# Shared flanks, not repeated: GTGAGCGGTGCCCATTGATGGGGAAC … TTTCACTGGGATCGTGGGGAC
# Target sequence (chain): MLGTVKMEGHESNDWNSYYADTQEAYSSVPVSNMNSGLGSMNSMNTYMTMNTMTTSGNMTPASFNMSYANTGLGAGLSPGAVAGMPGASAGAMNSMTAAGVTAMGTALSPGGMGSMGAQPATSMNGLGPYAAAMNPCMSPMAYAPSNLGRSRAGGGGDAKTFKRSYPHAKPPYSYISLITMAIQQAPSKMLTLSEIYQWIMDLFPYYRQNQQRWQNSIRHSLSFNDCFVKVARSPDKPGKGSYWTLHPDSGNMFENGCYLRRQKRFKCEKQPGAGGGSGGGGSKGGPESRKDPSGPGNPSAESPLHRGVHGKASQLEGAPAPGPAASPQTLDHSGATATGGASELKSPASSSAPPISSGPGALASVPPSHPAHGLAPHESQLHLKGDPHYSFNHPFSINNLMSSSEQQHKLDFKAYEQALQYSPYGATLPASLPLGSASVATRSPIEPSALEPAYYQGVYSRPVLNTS
Strand,normalised bound fraction [ratio]
ATCTTCCCCCTCTTCCTTGCCCCACCAGCTCACCTACGGGGGTTATTTGCACAAAGGAAAATAAATAAAGCCGGCATTCGTTAACCCTCTTCTGGCGCAAACTGCTGTTTGCTCTGCATCTAACATGGTCCTTACGCGAGGCGTGGCTCCGGGAGAGCAAAGCACCGTGTCAGGCGCATGATCCGGGCTCGCC,0.391
ATCTTCCCCCTCTTCCTTGCCCCACCAGCTCACCTTCCCGGGTTATTTGCACAAAGGAAAATAAATAAAGCCGGCATTCGTTAACCCTCTTCTGGCGCAAACTGCTGTTTGCTCTGCATCTAACATGGTCCTTACGCGAGGCGTGGCTCCGGGAGAGCAAAGCACCGTGTCAGGCGCATGATCCGGGCTCGCC,0.379
TAGGAATTTGGTTAGCTCCCTAAATAACTTCTCTGCTTTCCTCATCTGCAATTAGCTAAATGGAAAGCAATCGTGATCTCAGGATAAGCCTCATGTTTACATTTGAGTTCAGACGCCCTCACCCGGTACCAAGACTGCAAAGCAGCCCCAAATACACCCTAACCCATCTTTCCAAGCATAAATCCTTTTGCTC,0.265
TTTTTCATGTATAAATATATAATTTTATTTAATATTTAGATTTTATTCTTTTCTCTGAATTCATTATATACTACAAAAGTTATGGCATCTCAATGTAAACACAGATGCAGAAGAAAAGAGTTCTAATACCTTTATTACCTAAGAAGATAAAATATCATAGATGTGTGGAATTAAAAGAAAATTATCAAAGTCC,0.35
CCTTGTATTCTTCAGATCTCATTTTCCCCCAAATTTCTGCAGTGGTTGGCTTCCATTTCAGCATCAGTCACGAAATCTTGAAGGTCAGACACAGTAATCTGGGAAGGACATAAAATTAAGTGATTTGGGCGTAGTTTTGAGTCTCACAACTTTAACAGGGATGAGTCATACATTAAAGTATGTCGAAATAAAT,-0.0119
ATCTTCCCCCTCTTCCTTGCCCCACCAGCTCACCTTCCCGGGTTGTTTACTTTGAGCAAAGTAAACAAAGCCGGCATTCGTTAACCCTCTTCTGGCGCAAACTGCCAGAGCAAACAGATGAATCATGGTCCTTTGGCGACGCCAGGCTCCGGGAGAGCAAAGCACCGTGTCAGGGCCATGATCCGGGGTGGCC,0.524
ATCTTCCCCCTCTTCCTTGCCCCACCAGCTCACCTTCCCGGGTTATTTGCAGATAGGAAAATAAATAAAGCCGGCATTCGTTAACCCTCTTCTGGCGCAAACTGCGTTGTTCCTTGGATGAATCATGGTCCTTTGGCGACGCCAGGCTCCGGGAGAGCAAAGCACCGTGTCAGGGCCATGATCCGGGGTGGCC,0.329
CTTCCCTAGCCCTGACTTCCCAAGCCTTAGTCATCACCCTCTCTCCCACCCAGGGCTCAGCACAGTACCTGGAACAGTCAAGCCCTCAATAAATGTTTACTGAGTGCATTAAAAAAAAAAAAAAGATTTTAATGAGTCATGCTTTAACTGAAGATTTTAGTGTAGTCAGTCATTGGGCCTTGGATGCCAAAGG,0.13

# Set 4 — method: protein-binding microarray; form: double-stranded DNA, one strand shown; matrix: in vitro; concentration: 0.8 µM; setting: whole 60-bp probe, no competitor; direction: higher = stronger binding; shared flanks, not repeated: … GTCTTGATTCGCTTGACGCTGCTG
# Target: Centromere-binding protein 1, full length, N-terminal tag (CBF1, Saccharomyces cerevisiae, UniProt P17106, residues 1-351)
# Sequence of UniProt P17106 (whole entry, looked up): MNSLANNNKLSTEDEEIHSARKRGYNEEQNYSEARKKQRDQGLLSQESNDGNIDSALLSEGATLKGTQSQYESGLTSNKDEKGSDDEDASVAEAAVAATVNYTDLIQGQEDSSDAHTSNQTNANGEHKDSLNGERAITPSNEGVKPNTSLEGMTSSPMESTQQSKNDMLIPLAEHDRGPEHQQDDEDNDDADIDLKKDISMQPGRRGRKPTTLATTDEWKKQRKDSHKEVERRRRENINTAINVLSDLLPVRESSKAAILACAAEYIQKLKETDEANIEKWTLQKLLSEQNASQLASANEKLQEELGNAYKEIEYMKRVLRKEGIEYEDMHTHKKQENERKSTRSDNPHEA
Strand,fluorescence intensity [a.u.]
GAATATCTGCACTCAGCTGTTGTATTTCACTTGTAG,526
GAATGACAAGACTGCCACGTTGATCGCTGCGCTTAG,541
CTAAAATTTTTCAGTCACCTTTAACGAAAATCATTC,593
GAACTTCTCCATTTTCACGTGCTAAAAAAGTTCTAG,7560
GAACGGATGCTATGTCACGTTGAATTAGACCGTTAG,1120
GAACTTTTCGCGGCGCACGTGCATGACGGTAAATAG,12200
CTAATTAATCCTACGTGACTTACACATATGCCATTC,945
CTAATATCAAAGGATCACGACTAAAGTACCAAGTTC,577
GAAGCTATCTTAACTGACGTGAAGTTGACCCTATAG,506
GAAATTCACAACCATCACCATCGGGATGGTAATTAG,478
GAATGCAGGTAGAATCTGATGAATCCTGGCACGTAG,517
CCTAACTACTATACATTCGTGCAATAGCTTCGTACA,523
GAAAGGGCATTATGTAGCATCACCCGGAAGAACTAG,508
CTATTTACTATCTTACACGTGTTTGTAACATAATTC,6010
CTAAAATCCTTATCAGGTGTGAATAATGCTTAATTC,786
GAAATTAAAGCACATGTCACGATTTAAAAAATCTAG,2910
GAAGTGGTGGGATATACCGTGGCAACGGATAGTTAG,512
CTACTCTCACCTCGTGATGTTACGAACGCCACGTTC,2400
CTAATTCAGGGATGGCTCATCACGAACAGCAAATTC,582
CTACTAATATTCTTTTTCGTCACCGTGTTTATATTC,616
CTACTAGGTTCGGGTGACGTGAAGATAACGAAATTC,553
CCTAACTACTATAAACCCGTGCAATAGCTTCGTACA,594
TGTACGAAGCTATTTTACGTGATTATAGTAGTTAGG,561

# A few entries again (set 4):
Strand,fluorescence intensity [a.u.]
CTATTTACTATCTTACACGTGTTTGTAACATAATTC,6010
CTAAAATCCTTATCAGGTGTGAATAATGCTTAATTC,786
GAAATTAAAGCACATGTCACGATTTAAAAAATCTAG,2910
GAAGTGGTGGGATATACCGTGGCAACGGATAGTTAG,512
CTACTCTCACCTCGTGATGTTACGAACGCCACGTTC,2400
CTAATTCAGGGATGGCTCATCACGAACAGCAAATTC,582
CTACTAATATTCTTTTTCGTCACCGTGTTTATATTC,616
CTACTAGGTTCGGGTGACGTGAAGATAACGAAATTC,553
